# Assay results from different studies.
# Protocols differ between the studies behind these lines. Values joined by “and” are separate records of one study, mostly repeats; a detail may differ.
SMILES,cell line,test,conditions,scale,viability
NC(=S)N/N=C/c1ccc(OCc2ccccc2)cc1,IMR-32,MTT,"300 µg/mL, 24 h",reference: untreated control,42.1%
Cc1ccc(N(C)CCN2CCOCC2)cc1C(=O)N[C@H](C)c1cc(-c2cnn(C)c2)nc2ccccc12,Vero E6,,31.25 µM,,94.4% and 96.2% and 93.5%
NC(=S)N/N=C/c1ccc(OCc2cccc(F)c2)cc1,IMR-32,MTT,"300 µg/mL, 24 h",reference: untreated control,47.2%
CNC(=O)C[C@H](Cc1ccncc1)NC(=O)[C@@H](Cc1cccc(Br)c1)NC(=O)[C@@H](N)Cc1cccc(F)c1,Huh-7-ACE2,CellTiter-Glo,"0.00153 µM, 48 h, unit not given",reference: DMSO,1.11 and 0.992 and 0.891
CNC(=S)N/N=C/c1ccc(OCc2ccccc2)cc1,IMR-32,MTT,"400 µg/mL, 24 h",reference: untreated control,49.4%
O=c1n(CCNCCOS(=O)(=O)c2ccccc2)c(=O)n(S(=O)(=O)c2ccccc2)c(=O)n1S(=O)(=O)c1ccccc1,HUVEC,"cell growth or viability, MTT","12.5 µg/mL, 48 h",,38.9%
Cc1ccc(O[C@H]2CCN(C)C2)cc1C(=O)N[C@H](C)c1cc(-c2cnn(C)c2)nc2ccccc12,Vero E6,,31.25 µM,,71.1% and 80.4% and 75.7%
CNC(=O)C[C@H](Cc1ccc(F)cc1)NC(=O)[C@@H](Cc1ccc(Cl)cc1Cl)NC(=O)[C@H](N)Cc1ccccc1[N+](=O)[O-],Huh-7-ACE2,CellTiter-Glo,"0.000381 µM, 48 h, unit not given",reference: DMSO,0.942 and 0.931 and 1.01
CCCCCCCCCCCCCCCC(=O)N[C@@H](CSCC(COC(=O)CCCCCCCCCCCCCCC)OC(=O)CCCCCCCCCCCCCCC)C(=O)N[C@@H](CO)C(=O)N[C@@H](CCCCN)C(=O)N[C@@H](CCCCN)C(=O)N[C@@H](CCCCN)C(=O)N[C@@H](CCCCN)C(=O)O (stereo partly shown),HFF-1,,"10 µg/mL, 48 h",,104%
CCOc1ccc(CN2CC[C@H]2C(=O)NC)cc1-c1cccc(C(=O)NC[C@@H]2COC(C)(C)O2)c1,Huh-7-ACE2,CellTiter-Glo,"0.00153 µM, 48 h, unit not given",reference: DMSO,1.07 and 1.15 and 0.997
Cc1ccc(N2CC3CCC(C2)N3C)cc1C(=O)N[C@H](C)c1cc(-c2cnn(C)c2)nc2ccccc12,Vero E6,,250 µM,,0.958% and 0.766% and 1.53%
CNC(=O)CC[C@H](Cc1ccccc1)NC(=O)[C@@H](Cc1ccc(Cl)cc1Cl)NC(=O)[C@H](N)Cc1ccccc1[N+](=O)[O-],Huh-7-ACE2,CellTiter-Glo,"0.0061 µM, 48 h, unit not given",reference: DMSO,0.985 and 0.984 and 1.08
Cc1ccc(OCCN(C)C)cc1C(=O)N[C@H](C)c1cc(-c2cccnc2N2CCCC2)nc2ccccc12,Vero E6,,15.62 µM,,102% and 103%
CNC(=O)C[C@H](Cc1ccccc1)NC(=O)[C@@H](Cc1ccc(Cl)cc1Cl)NC(=O)[C@H](N)Cc1ccccc1C#N,Huh-7-ACE2,CellTiter-Glo,"3.125 µM, 48 h, unit not given",reference: DMSO,0.876 and 0.904 and 0.81
CCn1ccc(-c2cc([C@@H](C)NC(=O)c3cc(OC[C@H]4CCCN4C)ccc3C)c3ccccc3n2)n1,Vero E6,,7.812 µM,,97% and 90.5% and 101%
CCCCCCCCCCCCCCCC(=O)OCC(CSC[C@H](N)C(=O)N[C@@H](CO)C(=O)N[C@@H](CCCCN)C(=O)N[C@@H](CCCCN)C(=O)N[C@@H](CCCCN)C(=O)N[C@@H](CCCCN)C(=O)O)OC(=O)CCCCCCCCCCCCCCC (stereo partly shown),HFF-1,,"10 µg/mL, 48 h",,100%

# Some of these lines once more:
SMILES,cell line,test,conditions,scale,viability
CNC(=O)C[C@H](Cc1ccccc1)NC(=O)[C@@H](Cc1ccc(Cl)cc1Cl)NC(=O)[C@H](N)Cc1ccccc1C#N,Huh-7-ACE2,CellTiter-Glo,"3.125 µM, 48 h, unit not given",reference: DMSO,0.876 and 0.904 and 0.81
